{"data": "Assay results of several laboratories", "note": "A part holds a random share of what one study measured.", "chain of UniProt Q9NQU5 (whole entry, looked up)": "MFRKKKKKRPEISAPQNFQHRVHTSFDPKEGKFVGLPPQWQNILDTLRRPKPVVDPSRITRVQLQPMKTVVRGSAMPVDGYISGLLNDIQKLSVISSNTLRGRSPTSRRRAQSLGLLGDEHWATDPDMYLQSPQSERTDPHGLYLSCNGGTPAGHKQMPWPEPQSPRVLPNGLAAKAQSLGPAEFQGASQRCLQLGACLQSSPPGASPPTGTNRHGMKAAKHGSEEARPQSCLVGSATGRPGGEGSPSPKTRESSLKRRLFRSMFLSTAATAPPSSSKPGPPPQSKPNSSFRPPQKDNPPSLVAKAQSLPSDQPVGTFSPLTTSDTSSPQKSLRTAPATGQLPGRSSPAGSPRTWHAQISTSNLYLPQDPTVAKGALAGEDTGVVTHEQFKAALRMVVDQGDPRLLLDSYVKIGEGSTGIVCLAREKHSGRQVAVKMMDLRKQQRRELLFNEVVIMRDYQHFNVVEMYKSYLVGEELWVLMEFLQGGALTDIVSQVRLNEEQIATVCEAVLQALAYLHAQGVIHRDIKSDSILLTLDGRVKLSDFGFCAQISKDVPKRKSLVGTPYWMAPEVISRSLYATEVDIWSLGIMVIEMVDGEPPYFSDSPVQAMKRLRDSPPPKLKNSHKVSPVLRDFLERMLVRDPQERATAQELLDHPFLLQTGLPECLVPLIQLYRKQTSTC", "chain of UniProt P23458 (whole entry, looked up)": "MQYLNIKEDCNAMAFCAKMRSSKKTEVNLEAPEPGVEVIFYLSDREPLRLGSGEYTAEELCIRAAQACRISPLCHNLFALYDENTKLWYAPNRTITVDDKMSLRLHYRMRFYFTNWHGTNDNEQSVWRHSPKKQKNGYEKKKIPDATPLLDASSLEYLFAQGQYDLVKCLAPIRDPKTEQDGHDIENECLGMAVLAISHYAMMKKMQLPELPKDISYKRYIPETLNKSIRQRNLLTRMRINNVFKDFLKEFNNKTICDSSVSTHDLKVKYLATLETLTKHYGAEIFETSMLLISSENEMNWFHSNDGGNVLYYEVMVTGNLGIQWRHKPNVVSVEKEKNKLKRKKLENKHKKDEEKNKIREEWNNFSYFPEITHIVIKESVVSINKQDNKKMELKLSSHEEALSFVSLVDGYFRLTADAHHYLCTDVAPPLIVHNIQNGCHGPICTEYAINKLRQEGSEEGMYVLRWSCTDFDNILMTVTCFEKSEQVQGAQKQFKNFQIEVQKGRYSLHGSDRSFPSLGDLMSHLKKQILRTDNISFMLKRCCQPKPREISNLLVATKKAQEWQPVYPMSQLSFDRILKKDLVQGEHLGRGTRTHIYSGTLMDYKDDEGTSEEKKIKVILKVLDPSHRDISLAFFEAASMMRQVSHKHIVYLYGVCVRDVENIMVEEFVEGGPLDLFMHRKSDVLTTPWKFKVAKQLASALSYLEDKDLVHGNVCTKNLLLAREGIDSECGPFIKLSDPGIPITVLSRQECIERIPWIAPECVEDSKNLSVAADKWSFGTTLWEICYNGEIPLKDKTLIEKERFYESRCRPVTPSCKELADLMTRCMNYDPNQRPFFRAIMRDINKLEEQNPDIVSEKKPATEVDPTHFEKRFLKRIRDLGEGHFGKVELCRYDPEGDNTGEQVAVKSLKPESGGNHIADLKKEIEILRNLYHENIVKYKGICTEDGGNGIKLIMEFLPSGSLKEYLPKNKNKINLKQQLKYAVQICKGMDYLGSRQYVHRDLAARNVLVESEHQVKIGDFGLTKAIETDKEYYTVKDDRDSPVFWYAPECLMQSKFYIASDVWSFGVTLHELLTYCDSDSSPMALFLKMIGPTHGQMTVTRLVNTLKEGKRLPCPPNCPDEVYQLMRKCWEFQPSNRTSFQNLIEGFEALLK", "chain of UniProt O96013 (whole entry, looked up)": "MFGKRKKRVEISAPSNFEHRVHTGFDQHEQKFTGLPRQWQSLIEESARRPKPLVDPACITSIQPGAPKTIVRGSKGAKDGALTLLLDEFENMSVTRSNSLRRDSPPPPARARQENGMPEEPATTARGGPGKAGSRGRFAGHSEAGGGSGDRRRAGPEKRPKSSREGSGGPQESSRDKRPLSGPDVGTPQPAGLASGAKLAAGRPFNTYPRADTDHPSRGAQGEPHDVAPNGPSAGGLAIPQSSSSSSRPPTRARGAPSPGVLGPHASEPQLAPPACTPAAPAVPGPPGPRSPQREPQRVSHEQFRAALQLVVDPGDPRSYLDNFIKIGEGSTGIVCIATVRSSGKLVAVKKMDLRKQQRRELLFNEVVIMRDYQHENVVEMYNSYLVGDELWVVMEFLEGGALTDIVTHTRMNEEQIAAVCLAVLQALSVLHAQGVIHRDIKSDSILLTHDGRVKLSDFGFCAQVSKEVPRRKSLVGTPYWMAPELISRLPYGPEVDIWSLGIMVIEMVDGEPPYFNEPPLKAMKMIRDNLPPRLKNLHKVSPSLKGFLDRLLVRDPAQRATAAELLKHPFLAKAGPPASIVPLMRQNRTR", "chain of UniProt Q8N5S9 (whole entry, looked up)": "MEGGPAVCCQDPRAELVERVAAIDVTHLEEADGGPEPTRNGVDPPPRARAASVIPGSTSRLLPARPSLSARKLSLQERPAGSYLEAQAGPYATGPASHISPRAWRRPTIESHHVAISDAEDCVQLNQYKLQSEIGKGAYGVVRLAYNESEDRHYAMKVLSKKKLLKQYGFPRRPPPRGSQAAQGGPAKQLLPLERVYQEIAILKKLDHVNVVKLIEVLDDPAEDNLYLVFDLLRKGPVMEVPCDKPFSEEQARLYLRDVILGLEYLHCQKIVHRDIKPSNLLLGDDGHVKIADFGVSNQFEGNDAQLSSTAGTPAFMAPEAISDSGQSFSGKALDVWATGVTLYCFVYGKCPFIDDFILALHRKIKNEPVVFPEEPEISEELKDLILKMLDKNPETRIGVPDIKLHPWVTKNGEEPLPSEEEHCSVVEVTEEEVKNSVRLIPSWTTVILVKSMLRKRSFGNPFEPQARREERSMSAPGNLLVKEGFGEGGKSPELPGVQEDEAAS", "chain of UniProt Q04759 (whole entry, looked up)": "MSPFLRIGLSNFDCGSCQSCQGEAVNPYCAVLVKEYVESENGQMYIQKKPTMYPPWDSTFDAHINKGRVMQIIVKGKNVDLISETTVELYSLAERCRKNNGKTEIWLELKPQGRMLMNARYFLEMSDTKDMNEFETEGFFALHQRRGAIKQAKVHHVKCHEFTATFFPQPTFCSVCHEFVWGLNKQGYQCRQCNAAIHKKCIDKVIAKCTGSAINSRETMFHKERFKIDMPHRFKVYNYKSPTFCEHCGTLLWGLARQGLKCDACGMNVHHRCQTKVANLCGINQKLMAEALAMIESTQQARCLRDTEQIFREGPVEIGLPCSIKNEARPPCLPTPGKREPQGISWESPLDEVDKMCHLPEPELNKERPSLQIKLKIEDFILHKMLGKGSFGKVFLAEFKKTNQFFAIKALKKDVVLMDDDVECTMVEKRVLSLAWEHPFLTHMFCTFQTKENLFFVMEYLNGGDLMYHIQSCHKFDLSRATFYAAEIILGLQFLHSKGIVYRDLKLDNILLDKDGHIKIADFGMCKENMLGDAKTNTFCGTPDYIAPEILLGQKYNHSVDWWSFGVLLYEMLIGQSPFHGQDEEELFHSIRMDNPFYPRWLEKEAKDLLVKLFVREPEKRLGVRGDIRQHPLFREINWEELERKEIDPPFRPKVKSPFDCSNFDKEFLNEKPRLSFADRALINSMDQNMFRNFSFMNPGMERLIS", "chain of UniProt P48730 (whole entry, looked up)": "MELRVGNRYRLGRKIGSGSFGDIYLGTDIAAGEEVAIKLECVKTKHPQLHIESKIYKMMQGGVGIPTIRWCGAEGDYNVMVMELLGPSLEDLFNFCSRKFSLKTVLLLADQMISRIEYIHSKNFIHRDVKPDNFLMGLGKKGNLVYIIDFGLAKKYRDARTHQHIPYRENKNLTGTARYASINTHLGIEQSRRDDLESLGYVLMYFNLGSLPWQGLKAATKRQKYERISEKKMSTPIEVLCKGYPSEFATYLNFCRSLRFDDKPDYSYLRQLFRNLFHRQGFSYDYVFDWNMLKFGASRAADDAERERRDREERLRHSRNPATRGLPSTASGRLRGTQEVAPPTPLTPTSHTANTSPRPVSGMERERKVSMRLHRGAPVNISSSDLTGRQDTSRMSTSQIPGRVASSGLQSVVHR", "chain of UniProt Q9P1W9 (whole entry, looked up)": "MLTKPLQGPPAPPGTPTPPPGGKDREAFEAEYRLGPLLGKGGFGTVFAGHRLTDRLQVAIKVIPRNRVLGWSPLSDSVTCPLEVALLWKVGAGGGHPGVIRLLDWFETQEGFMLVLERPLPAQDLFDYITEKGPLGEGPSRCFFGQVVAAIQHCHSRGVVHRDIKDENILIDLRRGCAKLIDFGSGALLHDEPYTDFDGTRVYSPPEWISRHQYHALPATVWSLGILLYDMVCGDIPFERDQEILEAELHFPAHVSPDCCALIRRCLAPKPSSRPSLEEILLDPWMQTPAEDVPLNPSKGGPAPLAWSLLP", "chain of UniProt Q13153 (whole entry, looked up)": "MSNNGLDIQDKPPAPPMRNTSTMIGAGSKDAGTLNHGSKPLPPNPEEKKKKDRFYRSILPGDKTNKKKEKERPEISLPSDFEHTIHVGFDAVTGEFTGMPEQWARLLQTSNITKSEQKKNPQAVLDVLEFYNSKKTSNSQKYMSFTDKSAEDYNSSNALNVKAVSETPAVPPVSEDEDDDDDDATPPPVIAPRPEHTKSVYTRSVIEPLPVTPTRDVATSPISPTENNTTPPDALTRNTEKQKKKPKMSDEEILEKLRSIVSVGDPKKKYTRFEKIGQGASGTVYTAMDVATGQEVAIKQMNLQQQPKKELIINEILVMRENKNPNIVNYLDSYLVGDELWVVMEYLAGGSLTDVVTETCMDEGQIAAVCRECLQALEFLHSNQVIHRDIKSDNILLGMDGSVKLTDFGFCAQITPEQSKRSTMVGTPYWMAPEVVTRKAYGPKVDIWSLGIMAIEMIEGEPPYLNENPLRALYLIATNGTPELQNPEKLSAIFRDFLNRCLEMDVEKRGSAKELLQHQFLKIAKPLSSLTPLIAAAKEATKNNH"}
{"data": "Block 1", "SMILES": "O=C(Nc1cnc(Oc2ccc(F)cc2)nc1)N1CCc2ncccc2[C@@H]1c1ccc(F)cc1", "technique": "competition with immobilised ligand", "tested at": "1 µM"}
{"target": "FGFR3 (Homo sapiens, UniProt P22607, G697C)", "test": "cell-free assay", "remaining binding": "89%"}
{"target": "MAP2K3 (Homo sapiens, UniProt P46734)", "test": "cell-free assay", "remaining binding": "76%"}
{"target": "ACVR1 (Homo sapiens, UniProt Q04771)", "test": "cell-free assay", "remaining binding": "97%"}
{"target": "Tyrosine-protein kinase ABL1, non-phosphorylated (ABL1, Homo sapiens, UniProt P00519, Q252H)", "test": "cell-free assay", "remaining binding": "91%"}
{"target": "COQ8B (Homo sapiens, UniProt Q96D53)", "test": "cell-free assay", "remaining binding": "100%"}
{"target": "FYN (Homo sapiens, UniProt P06241)", "test": "cell-free assay", "remaining binding": "100%"}
{"target": "Ribosomal protein S6 kinase alpha-1, C-terminal kinase domain (RPS6KA1, Homo sapiens, UniProt Q15418)", "test": "cell-free assay", "remaining binding": "76%"}
{"target": "PIM2 (Homo sapiens, UniProt Q9P1W9)", "test": "cell-free assay", "remaining binding": "94%"}
{"target": "MAP4K4 (Homo sapiens, UniProt O95819)", "test": "cell-free assay", "remaining binding": "86%"}
{"target": "PHKG2 (Homo sapiens, UniProt P15735)", "test": "cell-free assay", "remaining binding": "96%"}
{"target": "RET (Homo sapiens, UniProt P07949)", "test": "cell-free assay", "remaining binding": "94%"}
{"target": "PRKAA2 (Homo sapiens, UniProt P54646)", "test": "cell-free assay", "remaining binding": "79%"}
{"target": "PAK6 (Homo sapiens, UniProt Q9NQU5)", "test": "cell-free assay", "remaining binding": "100%"}
{"target": "AKT3 (Homo sapiens, UniProt Q9Y243)", "test": "cell-free assay", "remaining binding": "78%"}
{"target": "TIE1 (Homo sapiens, UniProt P35590)", "test": "cell-free assay", "remaining binding": "88%"}
{"target": "MST1R (Homo sapiens, UniProt Q04912)", "test": "cell-free assay", "remaining binding": "100%"}
{"target": "BTK (Homo sapiens, UniProt Q06187)", "test": "cell-free assay", "remaining binding": "92%"}
{"target": "Tyrosine-protein kinase ABL1, phosphorylated (ABL1, Homo sapiens, UniProt P00519, E255K)", "test": "binding", "remaining binding": "100%"}
{"target": "PAK4 (Homo sapiens, UniProt O96013)", "test": "cell-free assay", "remaining binding": "82%"}
{"target": "TGFBR2 (Homo sapiens, UniProt P37173)", "test": "cell-free assay", "remaining binding": "100%"}
{"target": "Tyrosine-protein kinase JAK1, JH1 (JAK1, Homo sapiens, UniProt P23458)", "test": "cell-free assay", "remaining binding": "86%"}
{"data": "Block 2", "SMILES": "Cc1cc(Nc2nc(-c3ccccc3)nc3ccccc23)n[nH]1", "observed": "enzyme activity", "action": "inhibitor", "tested at": "0.5 µM", "reference": "control"}
{"target": "CLK2 (Homo sapiens, UniProt P49760)", "remaining activity": "91.7%"}
{"target": "PAK1 (Homo sapiens, UniProt Q13153)", "remaining activity": "79.5%"}
{"target": "EPHA2 (Homo sapiens, UniProt P29317)", "remaining activity": "94.8%"}
{"target": "CAMKK1 (Homo sapiens, UniProt Q8N5S9)", "remaining activity": "90.7%"}
{"target": "CSNK1D (Homo sapiens, UniProt P48730)", "remaining activity": "96.7%"}
{"target": "TEC (Homo sapiens, UniProt P42680)", "remaining activity": "106%"}
{"target": "RPS6KA3 (Homo sapiens, UniProt P51812)", "remaining activity": "66.1%"}
{"target": "PAK6 (Homo sapiens, UniProt Q9NQU5)", "remaining activity": "78.9%"}
{"target": "SGK2 (Homo sapiens, UniProt Q9HBY8)", "remaining activity": "99.7%"}
{"target": "MAP3K20 (Homo sapiens, UniProt Q9NYL2)", "remaining activity": "87.1%"}
{"target": "PRKCQ (Homo sapiens, UniProt Q04759)", "remaining activity": "82.3%"}
{"target": "IGF1R (Homo sapiens, UniProt P08069)", "remaining activity": "70.8%"}
{"target": "CAMK1 (Homo sapiens, UniProt Q14012)", "remaining activity": "93.1%"}
{"target": "Cyclin-dependent kinase 2, with cyclin E (CDK2, Homo sapiens, UniProt P24941)", "remaining activity": "75.4%"}
{"target": "JAK1 (Homo sapiens, UniProt P23458)", "remaining activity": "83.7%"}
{"target": "PRKCZ (Homo sapiens, UniProt Q05513)", "remaining activity": "97.1%"}
{"target": "CLK1 (Homo sapiens, UniProt P49759)", "remaining activity": "74%"}
{"target": "CSNK1E (Homo sapiens, UniProt P49674)", "remaining activity": "97.4%"}
{"target": "TYRO3 (Homo sapiens, UniProt Q06418)", "remaining activity": "94.2%"}
{"target": "SIK2 (Homo sapiens, UniProt Q9H0K1)", "remaining activity": "99.6%"}
{"target": "SRPK1 (Homo sapiens, UniProt Q96SB4)", "remaining activity": "90.1%"}
{"target": "FLT1 (Homo sapiens, UniProt P17948)", "remaining activity": "78.7%"}
{"data": "Block 3", "target": "RNA binding protein fox-1 homolog 2, RRM domain, GST-SBP tag (RBFOX2, Homo sapiens, UniProt O43251-10, residues 100-194)", "technique": "RNA Bind-n-Seq", "molecule type": "RNA", "medium": "in vitro", "tested at": "365 nM", "notes": "natural RNA segment, single round, ends assumed", "reference": "no-protein control", "direction": "higher = stronger binding", "all sequences stand within": "GGGAGUUCUACAGUCCGACGAUC … UGGAAUUCUCGGGUGCCAA", "Construct (chain)": "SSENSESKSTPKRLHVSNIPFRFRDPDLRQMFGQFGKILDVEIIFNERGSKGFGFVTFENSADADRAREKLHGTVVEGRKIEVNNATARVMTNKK"}
{"Strand": "CUGCCCAAUUUUAAAGUUAUUCUUUUUGGGAGUGAGACAGGAUUAACUAAACAAGUUUGUGUUUUUUAAACCUUGGGCAUUUCAGAGAAAGAGCUGGUCUGGAGUGUCUC", "RBNS enrichment (R)": 1.36}
{"Strand": "ACAUUACUCUGUGGCUGCUGGAUUCUUUUCCAGCAUGGCCUGUGGCCUGUGUGAGGCAGAACUGGGACCCUUGAUUCCCAGAUUGGGAGUCAGCCAAGGACACUGGGGCU", "RBNS enrichment (R)": 0.226}
{"Strand": "AGGAAAUGUGAAAAUAUUUGUGUUUGUUUUGUCUGACUAACUUGCUGCUAAAUGCUAUCUUUAGGUGUGUGAAAGUUCUUUGAUAUGUUAUUGUCCUUUUACAUCUUGUU", "RBNS enrichment (R)": 1.01}
{"Strand": "AUGCAUGUAUUAUGCAUUGGAAAGGUAUUUUUUUUAAGUUCUGUUGGCUAGCUAUGGUUUUCAGUACAUUUCCUACUUUAAGAGUAAUUACUGACAAAUAUGUAUUUCCU", "RBNS enrichment (R)": 0.925}
{"Strand": "CUUGUAUCUUUAUUUGGUAUUCAUACUACUAGUAGCAAAAUACAGGUUUUUUGUUUUGUUUUGUUUUGUUUUGGCUUCAUAGAGUAUCUCAAAUUGAAACUUUUCUGCAC", "RBNS enrichment (R)": 0.623}
{"Strand": "AGACACUGAAACAGGAGAGAGGGACUUCCGUCCACUGGGCAGGGUACAGAUGUGUCUCAGUUGUGAAGGUCUAUUCCUGGCUGCACAGUCCCCAUCCGCUCAGUCAUCUU", "RBNS enrichment (R)": 0.234}
{"Strand": "CCCUCCCACCUGGCAUGGUAAGGGGGUAAGGGACGCUCAGGGAAGAGGUGCAUUCUCCGACCUCUGCCUCAGGCCUGAGGACGCCCACUGGGAGCUGGGGCAUUUCCAUC", "RBNS enrichment (R)": 3.05}
{"Strand": "CACAUCUCUCUUGAGAAUCCUUUAAGUGCUGUUUAGCCUCCCAACACAUAGAUGCAUAGGAUGGAGUUCCCUGAGGAAAACAGCACUUGAGCAUGGUGAGGAGUAGCCAG", "RBNS enrichment (R)": 7.85}
{"data": "Block 4", "target": "Sal-like protein 4, full length isoform B (SALL4, Homo sapiens, UniProt Q9UJQ4-2, residues 1-616)", "technique": "universal PBM", "molecule type": "double-stranded DNA, one strand shown", "medium": "in vitro", "tested at": "not given", "notes": "8-mer, flanks averaged, mean of replicates", "direction": "higher = stronger binding"}
{"Strand": "CTTATGAA", "E-score": 0.252}
{"Strand": "GTCCTAAA", "E-score": -0.02}
{"Strand": "CGGCAGGC", "E-score": -0.295}
{"Strand": "AATGCATA", "E-score": 0.259}
{"Strand": "GTAGAAGA", "E-score": -0.0927}
{"Strand": "AAAGGTGT", "E-score": -0.0691}
{"Strand": "CCTCACCG", "E-score": -0.281}
{"Strand": "ACCAATGA", "E-score": 0.128}
{"note": "For quick reference, copied from above (block 2):"}
{"target": "RPS6KA3 (Homo sapiens, UniProt P51812)", "remaining activity": "66.1%"}
{"target": "IGF1R (Homo sapiens, UniProt P08069)", "remaining activity": "70.8%"}
{"target": "JAK1 (Homo sapiens, UniProt P23458)", "remaining activity": "83.7%"}
{"target": "CSNK1E (Homo sapiens, UniProt P49674)", "remaining activity": "97.4%"}
{"target": "PAK1 (Homo sapiens, UniProt Q13153)", "remaining activity": "79.5%"}
